Assay results collected from several papers.
Protocols differ between the studies behind these lines. “And” joins repeats or separate records; there may be more than shown. Numbers after ± are the reported error.
Oprm1: Mu-type opioid receptor (Oprm1, Rattus norvegicus, UniProt P33535)
UniProt P33535, sequence (whole entry, looked up): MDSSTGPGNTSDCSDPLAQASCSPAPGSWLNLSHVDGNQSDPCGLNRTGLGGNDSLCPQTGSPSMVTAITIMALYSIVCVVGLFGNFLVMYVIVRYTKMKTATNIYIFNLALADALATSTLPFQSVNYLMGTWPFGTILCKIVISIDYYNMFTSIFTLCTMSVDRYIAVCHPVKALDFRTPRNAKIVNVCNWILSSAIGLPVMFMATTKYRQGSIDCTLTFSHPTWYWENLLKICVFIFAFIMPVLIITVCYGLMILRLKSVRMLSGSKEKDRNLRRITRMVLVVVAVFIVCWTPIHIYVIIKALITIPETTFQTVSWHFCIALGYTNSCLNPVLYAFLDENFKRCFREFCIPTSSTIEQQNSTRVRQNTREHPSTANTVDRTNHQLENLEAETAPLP
lasR: Transcriptional activator protein LasR (lasR, Pseudomonas aeruginosa, UniProt P25084)
Uncharacterized hydrolase SAUSA300_2518: Uncharacterized hydrolase SAUSA300_2518 (Staphylococcus aureus, UniProt Q2FDS6)
FGFR2: Fibroblast growth factor receptor 2 (FGFR2, Homo sapiens, UniProt P21802)
UniProt P21802, sequence (whole entry, looked up): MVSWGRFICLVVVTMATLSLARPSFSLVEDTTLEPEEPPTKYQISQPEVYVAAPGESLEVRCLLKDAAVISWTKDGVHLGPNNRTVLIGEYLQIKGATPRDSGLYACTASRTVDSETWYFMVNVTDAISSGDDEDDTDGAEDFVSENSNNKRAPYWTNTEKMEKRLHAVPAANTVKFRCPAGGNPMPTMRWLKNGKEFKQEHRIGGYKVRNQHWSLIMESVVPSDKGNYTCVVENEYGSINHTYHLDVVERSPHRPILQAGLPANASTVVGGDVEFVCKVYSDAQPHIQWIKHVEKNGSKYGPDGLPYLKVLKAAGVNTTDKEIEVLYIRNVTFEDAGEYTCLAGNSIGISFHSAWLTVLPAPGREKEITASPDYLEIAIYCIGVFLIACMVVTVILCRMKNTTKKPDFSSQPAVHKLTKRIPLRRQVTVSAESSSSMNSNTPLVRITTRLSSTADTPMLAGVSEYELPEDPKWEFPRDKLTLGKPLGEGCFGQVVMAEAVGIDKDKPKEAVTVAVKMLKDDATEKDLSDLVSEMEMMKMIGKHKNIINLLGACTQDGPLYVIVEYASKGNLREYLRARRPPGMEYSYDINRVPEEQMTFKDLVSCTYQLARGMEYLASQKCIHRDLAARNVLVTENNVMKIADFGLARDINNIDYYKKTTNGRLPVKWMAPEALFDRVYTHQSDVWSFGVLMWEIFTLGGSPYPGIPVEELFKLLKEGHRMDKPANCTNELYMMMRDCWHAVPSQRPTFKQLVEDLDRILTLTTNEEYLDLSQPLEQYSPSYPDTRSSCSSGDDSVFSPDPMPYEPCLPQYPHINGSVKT
sdiA: Regulatory protein SdiA (sdiA, Escherichia coli, UniProt P07026)
UniProt Q00987, sequence (whole entry, looked up): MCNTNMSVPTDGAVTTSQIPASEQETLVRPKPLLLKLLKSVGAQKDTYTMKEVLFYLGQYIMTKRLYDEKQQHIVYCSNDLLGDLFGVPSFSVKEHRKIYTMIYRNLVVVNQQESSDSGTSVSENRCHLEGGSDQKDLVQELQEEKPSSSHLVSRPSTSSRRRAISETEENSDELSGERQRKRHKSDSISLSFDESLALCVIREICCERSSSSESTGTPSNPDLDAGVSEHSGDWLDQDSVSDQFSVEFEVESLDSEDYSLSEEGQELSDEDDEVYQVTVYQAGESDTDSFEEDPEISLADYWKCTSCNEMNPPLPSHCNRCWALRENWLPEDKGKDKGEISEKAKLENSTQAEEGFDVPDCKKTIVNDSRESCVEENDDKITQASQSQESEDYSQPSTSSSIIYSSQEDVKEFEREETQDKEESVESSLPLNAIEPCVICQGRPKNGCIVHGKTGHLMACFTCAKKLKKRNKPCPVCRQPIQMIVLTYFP
UniProt Q9ULW8, sequence (whole entry, looked up): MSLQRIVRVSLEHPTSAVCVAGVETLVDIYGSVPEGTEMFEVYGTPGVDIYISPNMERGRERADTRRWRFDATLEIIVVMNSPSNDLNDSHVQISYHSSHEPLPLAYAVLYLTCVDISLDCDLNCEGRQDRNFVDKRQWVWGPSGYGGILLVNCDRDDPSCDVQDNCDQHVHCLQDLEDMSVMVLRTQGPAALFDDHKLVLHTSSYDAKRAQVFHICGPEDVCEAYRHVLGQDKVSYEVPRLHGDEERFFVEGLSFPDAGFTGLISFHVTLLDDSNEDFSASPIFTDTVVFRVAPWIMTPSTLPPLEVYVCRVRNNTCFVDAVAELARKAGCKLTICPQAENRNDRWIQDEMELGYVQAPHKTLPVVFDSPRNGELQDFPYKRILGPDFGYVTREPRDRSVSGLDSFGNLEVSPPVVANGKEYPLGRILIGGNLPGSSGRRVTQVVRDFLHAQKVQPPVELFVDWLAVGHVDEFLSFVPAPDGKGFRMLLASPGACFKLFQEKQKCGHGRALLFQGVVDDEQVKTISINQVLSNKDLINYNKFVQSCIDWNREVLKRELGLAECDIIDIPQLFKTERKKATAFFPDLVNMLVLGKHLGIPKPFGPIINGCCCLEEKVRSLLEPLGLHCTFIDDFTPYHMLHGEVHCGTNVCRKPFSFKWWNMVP
UniProt P07026, sequence (whole entry, looked up): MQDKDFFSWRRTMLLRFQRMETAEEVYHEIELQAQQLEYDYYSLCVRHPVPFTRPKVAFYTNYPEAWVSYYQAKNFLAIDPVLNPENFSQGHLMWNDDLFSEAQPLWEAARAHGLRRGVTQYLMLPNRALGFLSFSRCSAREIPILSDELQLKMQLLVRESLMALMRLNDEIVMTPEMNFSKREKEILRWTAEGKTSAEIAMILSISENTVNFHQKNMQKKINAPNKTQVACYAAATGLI
UniProt Q14145, sequence (whole entry, looked up): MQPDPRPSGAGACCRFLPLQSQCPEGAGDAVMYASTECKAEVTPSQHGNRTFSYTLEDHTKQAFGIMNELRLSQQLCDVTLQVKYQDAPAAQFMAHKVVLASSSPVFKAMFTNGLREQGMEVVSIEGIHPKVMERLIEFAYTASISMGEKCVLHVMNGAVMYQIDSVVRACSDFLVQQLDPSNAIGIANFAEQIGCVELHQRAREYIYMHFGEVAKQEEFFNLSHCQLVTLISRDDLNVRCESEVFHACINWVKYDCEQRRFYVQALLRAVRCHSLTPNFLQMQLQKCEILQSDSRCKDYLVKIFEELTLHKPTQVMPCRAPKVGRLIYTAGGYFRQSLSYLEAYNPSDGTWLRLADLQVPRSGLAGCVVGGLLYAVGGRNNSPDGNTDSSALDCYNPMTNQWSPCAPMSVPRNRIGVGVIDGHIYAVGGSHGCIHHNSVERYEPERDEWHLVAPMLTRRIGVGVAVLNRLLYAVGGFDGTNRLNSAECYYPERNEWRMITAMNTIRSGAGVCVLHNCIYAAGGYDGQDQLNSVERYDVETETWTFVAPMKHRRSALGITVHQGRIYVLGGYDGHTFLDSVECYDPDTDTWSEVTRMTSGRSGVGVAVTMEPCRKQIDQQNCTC
UniProt P0A988, sequence (whole entry, unmodified, looked up): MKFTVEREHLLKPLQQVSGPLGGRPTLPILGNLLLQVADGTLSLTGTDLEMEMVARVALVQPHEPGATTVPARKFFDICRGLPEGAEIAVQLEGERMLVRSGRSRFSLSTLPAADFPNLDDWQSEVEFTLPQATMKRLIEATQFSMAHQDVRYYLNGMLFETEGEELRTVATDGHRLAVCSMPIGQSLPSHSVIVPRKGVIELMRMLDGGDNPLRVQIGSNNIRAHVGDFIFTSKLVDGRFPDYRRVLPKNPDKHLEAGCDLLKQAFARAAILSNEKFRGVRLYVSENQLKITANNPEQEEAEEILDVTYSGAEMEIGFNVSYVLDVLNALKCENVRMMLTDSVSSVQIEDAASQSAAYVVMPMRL
UniProt Q96GD4, sequence (whole entry, looked up): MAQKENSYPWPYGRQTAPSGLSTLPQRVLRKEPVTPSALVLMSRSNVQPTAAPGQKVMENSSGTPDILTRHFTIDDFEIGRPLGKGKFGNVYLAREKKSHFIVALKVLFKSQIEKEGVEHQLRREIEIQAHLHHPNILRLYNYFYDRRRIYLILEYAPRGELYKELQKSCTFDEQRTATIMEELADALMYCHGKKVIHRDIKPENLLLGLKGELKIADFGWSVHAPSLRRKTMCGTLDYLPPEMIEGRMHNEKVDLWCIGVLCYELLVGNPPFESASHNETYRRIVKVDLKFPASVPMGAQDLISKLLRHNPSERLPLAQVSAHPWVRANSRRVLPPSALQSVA

CC[C@@H](C)[C@@H]1CN([C@H](Cc2ccc3ccccc3c2)CN2CCC[C@H]2CN2CCNC[C@@H]2Cc2ccc3ccccc3c2)CCN1CCC12CC3CC(CC(C3)C1)C2
remaining binding (Oprm1; radioligand binding; rat brain membranes; 500 nM, pH 7.5, 25 °C, with: 0.87 nM [3H]DAMGO): 103 ± 8.18%

CN(C)CCCSC(=S)N1CCN(C(=O)/C=C/c2coc3ccccc3c2=O)CC1
MST response (Nucleoprotein (N, Tomato spotted wilt virus, UniProt P25999, R94A); binding, microscale thermophoresis; 15.62 µM; dose series): 843 a.u.

CN(C)[C@H]1C[C@@]23CC[C@@]4(O2)C(=CC[C@]2(C)[C@@H](c5ccc6ccncc6c5)CC[C@H]24)C=C3[C@@H](O)[C@@H]1O
inhibition (Serine/threonine-protein kinase LATS2 (LATS2, Homo sapiens, UniProt Q9NRM7); ATP probe labelling, inhibitor, KiNativ profiling; 0.1 µM): -0.8%

CC(C)C[C@H](NC(=O)[C@H]1O[C@@H]1C(=O)O)C(=O)NCCCCN=C(N)N
Hill slope (Cathepsin L2 (CTSV, Homo sapiens, UniProt O60911)): -1.41

O=C(CCCOc1ccc(Cl)cc1)N[C@H]1CCOC1=O
potency ratio (lasR; reporter gene, antagonist; reference: IC50 PAO-JP2 over E. coli JLD271): 43

CC(C)[C@@H]1NC(=O)[C@H](CCC(=O)O)NC(=O)CNC(=O)[C@H]([C@@H](C)O)NC(=O)[C@H](CCC(=O)O)NC(=O)[C@H](CCC(=O)O)NC(=O)[C@H](CC(=O)O)NC(=O)[C@H](C(C)C)NC(=O)[C@H]([C@@H](C)O)NC(=O)CNC(=O)[C@H](CC(=O)O)NC(=O)[C@H](CC(N)=O)NC(=O)[C@H](Cc2ccc(O)cc2)NC1=O
fluorescence polarization (Kelch-like ECH-associated protein 1 (KEAP1, Homo sapiens, UniProt Q14145); Keap1-Nrf2 binding, inhibitor, competitive FP; 25 µM, 30 min, with: Nrf2 peptide probe; lower = stronger inhibition): 0.101 a.u. and 0.159 a.u.

O=C(CCCOc1cccc(Br)c1)N[C@H]1CCSC1=O
agonist activity (lasR; reporter gene, agonist; Escherichia coli JLD271; 10 µM, pSC11 and pJN105L plasmids; reference: OdDHL at same concentration): 88%

O=C1NC(=O)c2c1c1cc(F)c[n+]3c1c1c2c2cc(O)ccc2[n]1[Ru-4]312([N]=C=S)[S+]3CC[S+]1CC[S+]2CC3 (centres unmarked)
remaining activity (Platelet-derived growth factor receptor alpha (PDGFRA, Homo sapiens, UniProt P16234, V561D); enzyme activity; 100 nM, human enzyme, with: 10 µM ATP; reference: untreated): 8%

CCCC[C@H]1CNCCN1C[C@@H]1CCCN1C[C@@H](Cc1ccc2ccccc2c1)N1CCN(CCc2ccc(Cl)c(Cl)c2)[C@H]([C@H](C)CC)C1
remaining binding (Oprm1; radioligand binding; rat brain membranes; 500 nM, pH 7.5, 25 °C, with: 0.87 nM [3H]DAMGO): 104 ± 11.6%

N[C@H](C(=O)N1CCCC1)C1CCN(c2nccc3c(-c4ncc(Cl)cc4Cl)cccc23)CC1
kcat (Protein-arginine deiminase type-3 (PADI3, Homo sapiens, UniProt Q9ULW8); enzyme activity; 0.006291 µM, with: Ca2+ 0.25 mM): 0.105 s⁻¹ and 0.113 s⁻¹

O=S(=O)(F)c1cccc2c1OCC2
remaining activity (Uncharacterized hydrolase SAUSA300_2518; enzyme activity, inhibitor, fluorogenic substrate; 0.5 µM): 116% and 114%

COC(=O)[C@@H](NC(=O)c1nn(Cc2ccc(F)cc2)c2cc(OCCCCNC(=N)N)ccc12)C(C)(C)C
Emax (Cannabinoid receptor 1 (CNR1, Homo sapiens, UniProt P21554); G-protein signalling, agonist, cAMP; HEK293T cells, transfected): 106%

COc1cccc2c1OC(C)(C)[C@@H]1C[C@H]3CN(C(=O)[C@@H](Cc4c[nH]c5ccccc45)NC(=O)OC(C)(C)C)CC[C@H]3O[C@@H]21
ΔTm (Tumor susceptibility gene 101 protein (Homo sapiens, UniProt Q99816); thermal stability; 800 µM): 16.8 °C

CCn1nc(Cl)c2c1-c1cnc(N)c(c1)O[C@H](C)c1cc(F)ccc1-c1nn(C)cc1C2
selectivity ratio (Dual serine/threonine and tyrosine protein kinase (DSTYK, Homo sapiens, UniProt Q6XUX3); kinase activity, inhibitor; reference: IC50 DSTYK over IC50 ALK): 88 fold

C[C@H](NCc1ccc(-c2ccc(C(F)(F)F)cc2)cc1)C(N)=O
inhibition (FGFR2; cell-free assay, competition with immobilised ligand; 1 µM): 10%

Cc1ccc(OS(=O)(=O)F)c(C(=O)Nc2ccncc2)c1
remaining activity (Uncharacterized hydrolase SAUSA300_2518; enzyme activity, inhibitor, fluorogenic substrate; 0.5 µM): 83.6% and 85% and 80.7%

CC(C)[C@H]1NC(=O)C[C@H]2/C=C/CCSSC[C@@H](NC1=O)C(=O)N[C@H](Cc1cccc3ccccc13)C(=O)NCC(=O)O2
inhibition (FGFR2; enzyme activity, inhibitor; 10 µM): 1.1%

CCCCCC(=O)CC(=O)NC1CCSC1=O (centres unmarked)
Emax (sdiA): 90%

CC(C)CC(O)(CC(C)C)c1cn(C(=O)N2CCCC2)nn1
activity-based probe labelling ratio (Prolyl endopeptidase (Mus musculus, UniProt Q9QUR6); mouse, brain; concentration not given; reference: vehicle over compound): 1.19

O=C(CCCOc1cccc(Br)c1)N[C@H]1CCSC1=O
Emax (sdiA): 122%

COc1ccccc1-c1n[nH]c2nc(N[C@H]3CC[C@H](NS(=O)(=O)CC(C)C)CC3)ncc12
remaining binding (cyclin 9 (Leishmania donovani, UniProt A0A2D1QVA3); competitor, bead pull-down competition; Leishmania donovani extract; 0.0032 µM; reference: vehicle): 46%

CS(C)(=O)=Nc1ccc(-c2ccc(-c3nc4cc(O[C@@H]5CO[C@H]6[C@@H]5OC[C@H]6O)[nH]c4cc3F)cc2)cc1
inhibition (Aurora kinase B (AURKB, Homo sapiens, UniProt Q96GD4); enzyme activity, inhibitor; 10 µM): -2%

CC(O)C1CN(C(Cc2ccc3ccccc3c2)CN2CCCC2CN2CCNCC2CO)CCN1CCCC1CCCC1 (centres unmarked)
remaining binding (Oprm1; radioligand binding; rat brain membranes; 500 nM, pH 7.5, 25 °C, with: 0.87 nM [3H]DAMGO): 103 ± 8.82%

CCCCCCCCCNC(=O)CC(=O)c1ccccc1
agonist activity (lasR; reporter gene, agonist; Escherichia coli JLD271; 10 µM, pSC11 and pJN105L plasmids; reference: OdDHL at same concentration): 2%

CC(=O)N[C@@H](CCC(N)=O)C(=O)N[C@@H](CC1CCCCC1)C(=O)N[C@@H](CNC(=O)CCl)C(=O)N[C@@H](CC(C)C)C(=O)N[C@@H](Cc1ccccc1)C(=O)O
ΔG (Beta sliding clamp (Escherichia coli, UniProt P0A988, H175G); isothermal titration calorimetry; 25 °C): -8.3 kcal/mol

Cc1cc(C)cc(COc2cc3c(cc2OCc2cc(C)cc(C)c2)C2CC(O)(Cc4cn(CCOCCOCCOCCOCC(=O)Nc5cccc6c5C(=O)N(C5CCC(=O)NC5=O)C6=O)nn4)CC(C)N2CC3)c1 (racemic)
degradation (Rab GDP dissociation inhibitor beta (Homo sapiens, UniProt P50395); degrader, Western blot; PC-3; 2 µM, 24 h): 6%

CCNC(=S)NN=Cc1c2ccccc2cc2ccccc12.Cc1ccc(C(C)C)cc1.[Cl-].[Cl-].[Ru+2]
binding constant (Albumin (ALB, Homo sapiens, UniProt P02768); modified Stern-Volmer; 308 K): 13.7 ± 0.02 10⁴ M⁻¹

CC[C@H](C)[C@@H]1NC(=O)[C@H](CC(C)C)NC(=O)CNC(=O)[C@H](CCCNC(=N)N)NC(=O)[C@H](Cc2c[nH]c3ccccc23)NC(=O)[C@H](CCSC)NC(=O)[C@H](CO)NC(=O)[C@H](CCC(=O)O)NC(=O)[C@H](Cc2ccccc2)NC(=O)[C@H](CC(=O)O)NC(=O)[C@H]([C@@H](C)O)NC(=O)CNC(=O)[C@H](CCC(=O)O)NC(=O)[C@H]([C@@H](C)O)NC(=O)CNC(=O)[C@H](CC(=O)O)NC1=O
AlphaLISA signal (E3 ubiquitin-protein ligase Mdm2 (MDM2, Homo sapiens, UniProt Q00987); MDM2-ligand binding, inhibitor, AlphaLISA competition; 100 µM, with: GST-tagged MDM2 ligand; lower = stronger inhibition): 991 a.u. and 1010 a.u. and 1000 a.u.

CCOC(=O)[C@@H]1Cc2c(cc([N+](=O)[O-])cc2[N+](=O)[O-])[C@H](O)[C@]12C(=O)Nc1ccc(Br)cc12
remaining binding (Receptor-type tyrosine-protein kinase FLT3 (FLT3, Homo sapiens, UniProt P36888); binding, competition with immobilised ligand; 0.1 µM): 60%

Some of these lines once more:
CCn1nc(Cl)c2c1-c1cnc(N)c(c1)O[C@H](C)c1cc(F)ccc1-c1nn(C)cc1C2
selectivity ratio (Dual serine/threonine and tyrosine protein kinase (DSTYK, Homo sapiens, UniProt Q6XUX3); kinase activity, inhibitor; reference: IC50 DSTYK over IC50 ALK): 88 fold

C[C@H](NCc1ccc(-c2ccc(C(F)(F)F)cc2)cc1)C(N)=O
inhibition (FGFR2; cell-free assay, competition with immobilised ligand; 1 µM): 10%
